Results gathered from unrelated publications.
± gives the spread as reported.
AKR1C2: Aldo-keto reductase family 1 member C2 (AKR1C2, Homo sapiens, UniProt P52895)
Sequence of UniProt P52895 (whole entry, looked up): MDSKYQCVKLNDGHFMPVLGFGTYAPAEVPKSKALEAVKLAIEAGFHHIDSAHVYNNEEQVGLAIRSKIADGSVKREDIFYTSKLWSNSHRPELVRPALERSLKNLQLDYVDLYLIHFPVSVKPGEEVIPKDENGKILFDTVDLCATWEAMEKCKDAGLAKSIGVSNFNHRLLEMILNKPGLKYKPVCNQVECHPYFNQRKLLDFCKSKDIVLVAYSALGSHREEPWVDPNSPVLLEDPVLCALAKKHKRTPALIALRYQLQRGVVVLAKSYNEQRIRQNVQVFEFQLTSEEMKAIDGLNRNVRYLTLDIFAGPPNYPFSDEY
Sigmar1: Sigma non-opioid intracellular receptor 1 (Sigmar1, Rattus norvegicus, UniProt Q9R0C9)
Sequence of UniProt Q9R0C9 (whole entry, looked up): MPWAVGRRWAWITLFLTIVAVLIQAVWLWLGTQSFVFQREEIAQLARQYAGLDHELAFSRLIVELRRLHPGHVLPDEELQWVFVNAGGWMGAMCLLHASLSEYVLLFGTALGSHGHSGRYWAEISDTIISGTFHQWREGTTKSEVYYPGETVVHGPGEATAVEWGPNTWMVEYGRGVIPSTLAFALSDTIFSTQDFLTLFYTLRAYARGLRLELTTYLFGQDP
hdac10: Polyamine deacetylase HDAC10 (hdac10, Danio rerio, UniProt F1QCV2)
Sequence of UniProt F1QCV2 (whole entry, looked up): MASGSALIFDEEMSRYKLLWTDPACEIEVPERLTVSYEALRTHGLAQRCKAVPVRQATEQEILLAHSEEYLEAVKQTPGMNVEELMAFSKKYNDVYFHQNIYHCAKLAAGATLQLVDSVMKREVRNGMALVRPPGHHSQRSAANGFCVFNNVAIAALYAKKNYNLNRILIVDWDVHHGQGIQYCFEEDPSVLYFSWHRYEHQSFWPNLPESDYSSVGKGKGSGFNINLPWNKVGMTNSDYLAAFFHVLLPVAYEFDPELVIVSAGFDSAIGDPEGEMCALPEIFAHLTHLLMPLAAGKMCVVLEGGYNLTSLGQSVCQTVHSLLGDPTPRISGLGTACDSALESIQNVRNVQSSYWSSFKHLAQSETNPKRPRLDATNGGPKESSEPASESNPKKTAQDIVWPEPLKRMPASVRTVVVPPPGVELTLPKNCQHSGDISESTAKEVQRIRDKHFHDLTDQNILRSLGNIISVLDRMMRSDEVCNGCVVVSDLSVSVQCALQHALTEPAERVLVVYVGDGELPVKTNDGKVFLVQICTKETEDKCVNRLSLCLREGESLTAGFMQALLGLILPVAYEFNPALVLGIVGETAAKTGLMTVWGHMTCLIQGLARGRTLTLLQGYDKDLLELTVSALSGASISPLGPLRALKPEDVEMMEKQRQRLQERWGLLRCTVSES
PDK1: [Pyruvate dehydrogenase (acetyl-transferring)] kinase isozyme 1, mitochondrial (PDK1, Homo sapiens, UniProt Q15118)
Sequence of UniProt Q15118 (whole entry, looked up): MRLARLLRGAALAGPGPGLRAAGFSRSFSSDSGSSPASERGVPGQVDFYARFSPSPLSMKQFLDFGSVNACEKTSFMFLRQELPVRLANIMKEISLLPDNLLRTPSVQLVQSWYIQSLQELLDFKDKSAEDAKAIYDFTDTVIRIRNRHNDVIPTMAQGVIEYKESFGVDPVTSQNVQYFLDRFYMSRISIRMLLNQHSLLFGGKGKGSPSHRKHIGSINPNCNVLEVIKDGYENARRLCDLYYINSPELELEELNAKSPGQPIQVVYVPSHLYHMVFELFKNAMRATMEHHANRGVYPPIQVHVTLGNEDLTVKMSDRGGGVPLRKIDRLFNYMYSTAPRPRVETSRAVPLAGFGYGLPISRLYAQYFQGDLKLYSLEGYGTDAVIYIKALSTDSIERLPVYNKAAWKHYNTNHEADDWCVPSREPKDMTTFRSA
Ectonucleoside triphosphate diphosphohydrolase 8: Ectonucleoside triphosphate diphosphohydrolase 8 (Homo sapiens, UniProt Q5MY95)
Sequence of UniProt Q5MY95 (whole entry, looked up): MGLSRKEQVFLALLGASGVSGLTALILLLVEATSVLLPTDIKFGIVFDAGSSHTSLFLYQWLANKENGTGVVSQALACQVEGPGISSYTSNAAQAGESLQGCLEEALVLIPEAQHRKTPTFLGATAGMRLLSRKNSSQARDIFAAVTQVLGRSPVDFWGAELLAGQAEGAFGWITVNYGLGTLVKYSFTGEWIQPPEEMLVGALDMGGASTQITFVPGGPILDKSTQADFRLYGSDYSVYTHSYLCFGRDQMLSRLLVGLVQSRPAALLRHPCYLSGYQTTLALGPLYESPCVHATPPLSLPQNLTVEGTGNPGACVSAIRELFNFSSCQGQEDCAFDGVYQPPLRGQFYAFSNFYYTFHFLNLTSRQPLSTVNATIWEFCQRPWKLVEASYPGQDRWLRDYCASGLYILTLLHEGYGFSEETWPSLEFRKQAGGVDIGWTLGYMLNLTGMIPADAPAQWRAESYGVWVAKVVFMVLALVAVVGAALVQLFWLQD
ELANE: Neutrophil elastase (ELANE, Homo sapiens, UniProt P08246)
Sequence of UniProt P08246 (whole entry, looked up): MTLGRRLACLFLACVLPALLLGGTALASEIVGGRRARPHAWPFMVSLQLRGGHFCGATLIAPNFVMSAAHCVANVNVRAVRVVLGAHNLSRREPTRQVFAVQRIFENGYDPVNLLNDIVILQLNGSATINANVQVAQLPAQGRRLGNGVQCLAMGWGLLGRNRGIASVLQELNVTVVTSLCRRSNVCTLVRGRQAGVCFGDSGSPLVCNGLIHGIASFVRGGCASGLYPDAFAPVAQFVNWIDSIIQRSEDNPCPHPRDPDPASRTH
uidA: Beta-glucuronidase (uidA, Escherichia coli, UniProt P05804)
Sequence of UniProt P05804 (whole entry, looked up): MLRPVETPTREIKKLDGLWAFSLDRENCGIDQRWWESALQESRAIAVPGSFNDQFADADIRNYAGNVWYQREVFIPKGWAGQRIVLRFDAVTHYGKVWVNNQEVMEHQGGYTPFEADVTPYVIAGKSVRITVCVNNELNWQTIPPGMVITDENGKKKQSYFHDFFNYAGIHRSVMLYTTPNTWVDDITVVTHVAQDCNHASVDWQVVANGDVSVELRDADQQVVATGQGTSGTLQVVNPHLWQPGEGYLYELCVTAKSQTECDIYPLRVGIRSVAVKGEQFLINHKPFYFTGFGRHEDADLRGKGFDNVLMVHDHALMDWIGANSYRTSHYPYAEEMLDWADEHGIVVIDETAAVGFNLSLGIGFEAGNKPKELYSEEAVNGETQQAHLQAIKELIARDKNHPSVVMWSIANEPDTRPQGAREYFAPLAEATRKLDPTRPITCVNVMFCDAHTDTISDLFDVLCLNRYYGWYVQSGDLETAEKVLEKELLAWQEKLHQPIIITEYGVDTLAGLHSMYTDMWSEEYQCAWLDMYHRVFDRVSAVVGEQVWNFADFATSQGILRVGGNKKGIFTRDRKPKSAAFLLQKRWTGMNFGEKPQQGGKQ
AMY2: Pancreatic alpha-amylase (AMY2, Sus scrofa, UniProt P00690)
Sequence of UniProt P00690 (whole entry, looked up): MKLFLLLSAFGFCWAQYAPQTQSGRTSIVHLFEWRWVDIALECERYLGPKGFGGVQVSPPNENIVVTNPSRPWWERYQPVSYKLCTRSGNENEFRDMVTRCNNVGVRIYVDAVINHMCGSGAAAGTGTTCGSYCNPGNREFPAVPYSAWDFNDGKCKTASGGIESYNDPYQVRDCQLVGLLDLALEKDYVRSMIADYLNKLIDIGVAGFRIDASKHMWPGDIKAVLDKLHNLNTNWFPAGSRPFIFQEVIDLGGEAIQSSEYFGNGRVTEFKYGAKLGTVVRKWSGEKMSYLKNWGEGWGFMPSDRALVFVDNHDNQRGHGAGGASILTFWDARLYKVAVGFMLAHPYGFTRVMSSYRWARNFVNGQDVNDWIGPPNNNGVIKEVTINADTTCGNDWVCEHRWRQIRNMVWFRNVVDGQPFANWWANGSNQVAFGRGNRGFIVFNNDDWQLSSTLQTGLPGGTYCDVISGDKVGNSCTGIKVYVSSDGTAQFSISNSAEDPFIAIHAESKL
CDK4 with cyclin D3: Cyclin-dependent kinase 4, with cyclin D3 (CDK4, Homo sapiens, UniProt P11802)
Sequence of UniProt P11802 (whole entry, looked up): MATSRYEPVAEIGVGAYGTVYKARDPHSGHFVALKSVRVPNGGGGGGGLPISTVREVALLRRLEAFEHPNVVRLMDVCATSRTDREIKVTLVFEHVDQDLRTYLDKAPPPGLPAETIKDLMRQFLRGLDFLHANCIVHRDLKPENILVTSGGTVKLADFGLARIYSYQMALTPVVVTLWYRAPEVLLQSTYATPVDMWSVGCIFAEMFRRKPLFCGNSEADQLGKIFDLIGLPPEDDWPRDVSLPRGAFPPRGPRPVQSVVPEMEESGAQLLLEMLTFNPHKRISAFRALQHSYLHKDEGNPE
Sequence of UniProt P04035 (whole entry, looked up): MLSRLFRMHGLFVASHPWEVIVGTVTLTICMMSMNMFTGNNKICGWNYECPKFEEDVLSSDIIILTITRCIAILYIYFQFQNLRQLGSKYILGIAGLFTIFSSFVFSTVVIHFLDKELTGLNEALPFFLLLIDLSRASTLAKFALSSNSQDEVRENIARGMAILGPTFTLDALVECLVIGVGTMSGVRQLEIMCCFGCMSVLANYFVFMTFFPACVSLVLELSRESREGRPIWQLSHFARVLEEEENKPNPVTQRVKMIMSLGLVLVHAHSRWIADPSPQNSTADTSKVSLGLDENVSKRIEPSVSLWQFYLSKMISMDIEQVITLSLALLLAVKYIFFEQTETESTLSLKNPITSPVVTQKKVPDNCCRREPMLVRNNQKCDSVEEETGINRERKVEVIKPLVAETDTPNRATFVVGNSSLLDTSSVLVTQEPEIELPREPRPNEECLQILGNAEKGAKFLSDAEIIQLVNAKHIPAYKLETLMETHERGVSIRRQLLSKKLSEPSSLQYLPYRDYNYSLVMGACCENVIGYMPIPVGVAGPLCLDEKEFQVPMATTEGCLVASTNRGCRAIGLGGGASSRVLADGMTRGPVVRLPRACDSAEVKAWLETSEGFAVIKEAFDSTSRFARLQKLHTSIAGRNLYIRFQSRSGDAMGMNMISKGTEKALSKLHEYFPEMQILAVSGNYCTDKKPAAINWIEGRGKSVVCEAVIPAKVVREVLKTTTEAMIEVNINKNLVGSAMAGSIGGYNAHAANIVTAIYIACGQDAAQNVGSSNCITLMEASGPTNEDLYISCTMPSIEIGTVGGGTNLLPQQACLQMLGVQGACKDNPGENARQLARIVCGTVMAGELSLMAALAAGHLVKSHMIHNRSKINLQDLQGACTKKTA

With COc1cc2c(cc1Cl)[C@H]1CC[C@@]3(C)C(=O)CC[C@H]3[C@@H]1CC2 the inhibition was 60% (AKR1C2; enzyme activity, inhibitor, absorbance; 10 µM, pH 9).
O=C(NC1CCCCC1)c1nc(Cl)c2cccnc2c1O has an inhibition of 31 ± 8.5% (Tripartite terminase subunit 3, C-terminal nuclease domain (Human betaherpesvirus 5, UniProt P16732); endonuclease activity, ELISA; 10 µM).
The inhibition of C/C(=N\OCCN1CCCCC1)c1ccccc1C(F)(F)F is reported as 94.6% (Sigmar1; radioligand binding; 10 µM).
CC1=C(/C=C/C(C)=C/C=C/C(C)=C/C=O)C(C)(C)CCC1 has an inhibition of 67.6% (Cyclic nucleotide-gated channel alpha-1 (CNGA1, Bos taurus, UniProt Q00194); cGMP-activated current, inhibitor, inside-out patch clamp; 30 nM, added: low cGMP (~7.4% activation)).
For COc1ccc(C(=O)NO)cc1OCc1ccccc1, the inhibition was under 10% (hdac10; 0.1 µM).
For CCC(=O)N(C)c1ccc(Cl)c(Cl)c1, the inhibition was 25.8% (Melatonin receptor type 1A (MTNR1A, Homo sapiens, UniProt P48039); ligand displacement, radioligand; 10 µM).
N#Cc1c(NC(=O)CCl)sc2c1CCC(c1ccccc1)C2 (centres unmarked) has an inhibition of 11.2% (PDK1; enzyme activity, inhibitor, ATP luminescence; 100 µg/mL).
COc1cccc(COc2ccccc2/C=C/C(=O)NO)c1 gave an inhibition of 24% (hdac10; 1 µM).
For COc1cc2c(Nc3ccc(NC(=O)c4ccccc4)cc3)ncnc2cc1OCCCN1CCOCC1, inhibition read “no inhibition” (Mitotic checkpoint serine/threonine-protein kinase BUB1 beta (BUB1B, Homo sapiens, UniProt O60566); kinase activity, immunoprecipitate kinase; HeLa, mitotic; concentration not given).
For CNC(=O)c1ccccc1Oc1nc(Nc2cc(OC)c(OC)c(OC)c2)ncc1Br, the inhibition was about 80% (5'-AMP-activated protein kinase catalytic subunit alpha-1 (PRKAA1, Homo sapiens, UniProt Q13131); inhibitor; 1 µM).
O=C(NO)c1coc(-c2ccc(Br)cc2)n1 gave an inhibition of over 95% (hdac10; 1 µM).
C[C@]12CC[C@@H]3c4cc(Br)c(O)c(Br)c4CC[C@H]3[C@@H]1CCC2=O has an inhibition of 99.8% (AKR1C2; enzyme activity, inhibitor, absorbance; 100 µM, pH 9).
COC(=O)C(Cc1ccccn1)NC(=O)CCCCCCC(=O)NO (centres unmarked) gave an inhibition of under 10% (hdac10; 0.1 µM).
O=C(Nc1ccc(Cl)cc1)c1cccc(S(=O)(=O)Nc2ccc(Cl)cc2)c1 has an inhibition of 9% (Ectonucleoside triphosphate diphosphohydrolase 8; enzyme activity, inhibitor, absorbance; 100 µM).
For CCCCCCCCCCCC(=O)N[C@H](CO)C[C@@H](O)c1ccccc1, the inhibition was about 40% (Ceramide transfer protein (CERT1, Homo sapiens, UniProt Q9Y5P4); target engagement in cells, BRET; HeLa; 0.2 µM).
COc1cc(/C=N\C(=S)NNC(=O)CC2C(=O)c3ccccc3C2=O)cc(OC)c1OC gave an inhibition of 28.1% (ELANE; enzyme activity, inhibitor, fluorescence; 50 µM).
With O=C(Nc1nc2ccccc2s1)Nc1ccccc1C(F)(F)F the inhibition was 52.9% (uidA; enzyme activity, inhibitor, absorbance; 100 µM).
CC(=O)OCCc1ccc(O)c(O)c1 has an inhibition of under 10% (AMY2; enzyme activity, inhibitor; 500 µM).
With Cc1cccc(/C=C/C(=O)c2cnn(-c3ccccc3)c2C)c1 the inhibition was 31.8% (AMY2; enzyme activity, inhibitor, absorbance; 260 µM).
Cc1ccc(C(=O)N2CCN(Cc3noc(-c4ccccc4)n3)CC2)c(C)c1 has an inhibition of 4 ± 2% (Sodium channel protein type 9 subunit alpha (SCN9A, Homo sapiens, UniProt Q15858); sodium current, whole-cell patch clamp; HEK293, stable; 20 µM).
With O=C(O)[C@@H](O)[C@H]1OC(=O)[C@H](O)[C@H]1O the inhibition was 76.2% (uidA; enzyme activity, inhibitor, absorbance; 100 µM).
With COc1ccc(-c2nc(CSc3nc(N)c(C#N)c(-c4ccc5c(c4)OCO5)c3C#N)cs2)cc1 the inhibition was 54% (Adenosine receptor A2a (ADORA2A, Homo sapiens, UniProt P29274); ligand displacement, radioligand; 1 µM, cell membranes).
CC(C)Cn1cc(-c2ccnc(Nc3ccc(N4CCN(CCCCCCC(=O)NO)CC4)cc3)n2)nn1 gave an inhibition of 28.2% (CDK4 with cyclin D3; enzyme activity, inhibitor, TR-FRET; 50 nM).
The inhibition of Clc1ccc(-c2cs/c(=N/N=C/c3ccc(N4CCOCC4)cc3)n2-c2ccccc2)cc1 is reported as 80.5% (Carbonic anhydrase 2 (CA2, Bos taurus, UniProt P00921); enzyme activity, inhibitor, absorbance; 500 µM).
The inhibition of C/C(=N\OCCN1CCOCC1)c1cccc(C(F)(F)F)c1 is reported as 86.7% (Sigmar1; radioligand binding; 10 µM).
C[C@@]12CC[C@@H]3c4cc(I)c(O)cc4CC[C@H]3[C@@H]1CCC2=O gave an inhibition of 22.4% (AKR1C2; enzyme activity, inhibitor, absorbance; 10 µM, pH 9).
For Cc1nc2ccccc2n1S(=O)(=O)c1ccc2c(c1)C(=O)CC2=O, the inhibition was 25.2% (ELANE; enzyme activity, inhibitor, fluorescence; 1 µM).
The inhibition of C/C(=N\OCCCCN1CCCCC1)c1ccc(C(F)(F)F)cc1 is reported as 91.6% (Sigmar1; radioligand binding; 10 µM).
With CS(=O)(=O)c1ccc(Nc2ncnc3[nH]c4cc(Br)ccc4c23)cc1 the inhibition was 36.5% (Protein-tyrosine kinase 6 (PTK6, Homo sapiens, UniProt Q13882); enzyme activity, inhibitor, ADP detection; 2 µM).
For O=C1CSC(c2cccc(Br)c2)N1c1cc(Cl)ccc1O (centres unmarked), inhibition read “inhibited” (ACTR3/Actin-related protein 2 (Homo sapiens, UniProt P61158+P61160); actin polymerization, pyrenyl-actin; concentration not given).
COc1ccc(-c2cc(=O)oc3cc(OCC(=O)c4ccc(-c5ccccc5)cc4)ccc23)cc1 has an inhibition of at least 20% (Programmed cell death 1 ligand 1, with PD-1 (CD274, Homo sapiens, UniProt Q9NZQ7); PD-1/PD-L1 binding, inhibitor, TR-FRET; 25 µM).
The inhibition of O=C(/C=C/c1ccc2c(c1)OCO2)c1ccc(Cl)s1 is reported as 73.5% (Amine oxidase [flavin-containing] B (MAOB, Homo sapiens, UniProt P27338); enzyme activity, inhibitor, fluorescence; 1 µM).
With CN(C)C(=O)c1ccc(S(=O)(=O)c2ccc(NC(=O)[C@@](C)(O)C(F)(F)F)c(Cl)c2)cc1 the inhibition was 86.4% (PDK1; kinase activity, inhibitor, Kinase-Glo; 10 µM, added: E2 subunit).
COc1cc(C(=O)NC2CCC(N3CCN(CC4CCC5(CCCC5)C4)CC3)CC2)c(F)cc1Nc1ncc2c(n1)N(C1CCCC1(F)F)CC(F)(F)C(=O)N2C (centres unmarked) has an inhibition of 3.48% (Discoidin domain-containing receptor 2 (DDR2, Homo sapiens, UniProt Q16832); cell-free assay, TR-FRET; 10 µM).
C[C@]12CCC[C@H]1[C@@H]1CCc3c(cc(I)c(O)c3I)[C@H]1CC2 has an inhibition of 11.7% (AKR1C2; enzyme activity, inhibitor, absorbance; 100 µM, pH 9).
The inhibition of O=C(NC1CCCC1)c1cccc(S(=O)(=O)NC2CCCC2)c1 is reported as 35% (Ectonucleoside triphosphate diphosphohydrolase 8; enzyme activity, inhibitor, absorbance; 100 µM).
Nc1ccccc1NC(=O)c1ccc(Nc2nccc(-c3cn(C4CCCCC4)nn3)n2)cc1 has an inhibition of 13.7% (CDK4 with cyclin D3; enzyme activity, inhibitor, TR-FRET; 5 µM).
The inhibition of C[C@@]12CC[C@@H]3c4ccc(O)c(I)c4CC[C@H]3[C@@H]1CCC2=O is reported as 75% (AKR1C2; enzyme activity, inhibitor, absorbance; 100 µM, pH 9).
With O=C(c1ccc(Oc2ccc(Cl)cc2)c([N+](=O)[O-])c1)C(Cl)Cl the inhibition was 50.3% (PDK1; enzyme activity, inhibitor, ATP luminescence; 1 µM).
For O=C(O[C@H]1Cc2c(O)cc(O)cc2O[C@@H]1c1ccc(O)cc1)c1cc(O)c(O)c(O)c1, the inhibition was 95.9% (Pancreatic triacylglycerol lipase (PNLIP, Sus scrofa, UniProt P00591); enzyme activity, inhibitor; 10 µM).
With C[C@@H](N)C1CCN(S(=O)(=O)c2cccc3c(=O)[nH]ccc23)CC1 the inhibition was over 95% (Myotonin-protein kinase (DMPK, Homo sapiens, UniProt Q09013); cell-free assay, competition with immobilised ligand; 10 µM).
With CCc1nc2ccccc2n1S(=O)(=O)c1ccc2c(c1)C(=O)CC2=O the inhibition was 68.8% (ELANE; enzyme activity, inhibitor, fluorescence; 50 µM).
O=C(/C=C/c1ccc(Cl)cc1Cl)NO has an inhibition of 53% (hdac10; 0.1 µM).
Under inhibition, CCCCc1nc(Cl)c(C(=O)O)n1Cc1ccc(-c2ccccc2-c2nnn[nH]2)cc1 is recorded as “no inhibition” (3-hydroxy-3-methylglutaryl-coenzyme A reductase (HMGCR, Homo sapiens, UniProt P04035); enzyme activity, inhibitor, spectrophotometric counter-screen; up to 100 µM).
With CC(C)(O)C1=CCC(C2CC[C@]3(C)C2CCC2[C@@]4(C)CCC(O)C(C)(C)C4CC[C@]23C)C1=O (some centres unmarked) the inhibition was 74.8% (Tyrosine-protein phosphatase non-receptor type 1 (PTPN1, Homo sapiens, UniProt P18031); enzyme activity, inhibitor, absorbance; 50 µM).
The inhibition of O=C(NO)c1coc(-c2ccccc2)n1 is reported as 45% (hdac10; 1 µM).
For FC(F)(F)c1ccc(C(=NOCCCN2CCCCC2)c2ccccc2)cc1 (mixture of isomers), the inhibition was 99.9% (Sigmar1; radioligand binding; 10 µM).
The inhibition of C[C@]12CCC[C@H]1[C@@H]1CCc3c(cc(Cl)c(O)c3Cl)[C@H]1CC2 is reported as 76.8% (AKR1C2; enzyme activity, inhibitor, absorbance; 100 µM, pH 9).
For CCCCNC(=O)c1cccc(S(=O)(=O)NC2CC2)c1, the inhibition was 46% (Ectonucleoside triphosphate diphosphohydrolase 8; enzyme activity, inhibitor, absorbance; 100 µM).
With COc1ccc(Cn2ccc3ccc(C(=O)NO)cc32)cc1 the inhibition was 17% (hdac10; 1 µM).
The inhibition of COC(=O)C1=CNC=C(C(=O)OC)C1c1ccc(F)c(C(F)(F)F)c1 is reported as 40 to 60% (Glucocorticoid receptor (NR3C1, Homo sapiens, UniProt P04150); cell-free assay; 3 µM).
With COc1cc(/C=C/C(=O)NO)ccc1OCc1ccccc1 the inhibition was 17% (hdac10; 0.1 µM).
For FC(F)(F)C(=NOCCN1CCCC1)c1ccc(C(F)(F)F)cc1 (mixture of isomers), the inhibition was 67.4% (Sigmar1; radioligand binding; 10 µM).

A few entries again:
For CCC(=O)N(C)c1ccc(Cl)c(Cl)c1, the inhibition was 25.8% (Melatonin receptor type 1A (MTNR1A, Homo sapiens, UniProt P48039); ligand displacement, radioligand; 10 µM).
Nc1ccccc1NC(=O)c1ccc(Nc2nccc(-c3cn(C4CCCCC4)nn3)n2)cc1 has an inhibition of 13.7% (CDK4 with cyclin D3; enzyme activity, inhibitor, TR-FRET; 5 µM).
C[C@]12CC[C@@H]3c4cc(Br)c(O)c(Br)c4CC[C@H]3[C@@H]1CCC2=O has an inhibition of 99.8% (AKR1C2; enzyme activity, inhibitor, absorbance; 100 µM, pH 9).
For CNC(=O)c1ccccc1Oc1nc(Nc2cc(OC)c(OC)c(OC)c2)ncc1Br, the inhibition was about 80% (5'-AMP-activated protein kinase catalytic subunit alpha-1 (PRKAA1, Homo sapiens, UniProt Q13131); inhibitor; 1 µM).
COc1ccc(-c2cc(=O)oc3cc(OCC(=O)c4ccc(-c5ccccc5)cc4)ccc23)cc1 has an inhibition of at least 20% (Programmed cell death 1 ligand 1, with PD-1 (CD274, Homo sapiens, UniProt Q9NZQ7); PD-1/PD-L1 binding, inhibitor, TR-FRET; 25 µM).
Under inhibition, CCCCc1nc(Cl)c(C(=O)O)n1Cc1ccc(-c2ccccc2-c2nnn[nH]2)cc1 is recorded as “no inhibition” (3-hydroxy-3-methylglutaryl-coenzyme A reductase (HMGCR, Homo sapiens, UniProt P04035); enzyme activity, inhibitor, spectrophotometric counter-screen; up to 100 µM).
COc1cccc(COc2ccccc2/C=C/C(=O)NO)c1 gave an inhibition of 24% (hdac10; 1 µM).
O=C(Nc1ccc(Cl)cc1)c1cccc(S(=O)(=O)Nc2ccc(Cl)cc2)c1 has an inhibition of 9% (Ectonucleoside triphosphate diphosphohydrolase 8; enzyme activity, inhibitor, absorbance; 100 µM).
